Measurements from different studies.
Numbered parts are unrelated; each lists some results of a single study.

Study 1 — method: protein-binding microarray; molecule type: double-stranded DNA, one strand shown; medium: in vitro; concentration: 0.8 µM; notes: whole 60-bp probe, no competitor; reading: higher = stronger binding; constant ends, left off below: … GTCTTGATTCGCTTGACGCTGCTG
Target: Centromere-binding protein 1, full length, N-terminal tag (CBF1, Saccharomyces cerevisiae, UniProt P17106, residues 1-351)
Sequence of UniProt P17106 (whole entry, looked up): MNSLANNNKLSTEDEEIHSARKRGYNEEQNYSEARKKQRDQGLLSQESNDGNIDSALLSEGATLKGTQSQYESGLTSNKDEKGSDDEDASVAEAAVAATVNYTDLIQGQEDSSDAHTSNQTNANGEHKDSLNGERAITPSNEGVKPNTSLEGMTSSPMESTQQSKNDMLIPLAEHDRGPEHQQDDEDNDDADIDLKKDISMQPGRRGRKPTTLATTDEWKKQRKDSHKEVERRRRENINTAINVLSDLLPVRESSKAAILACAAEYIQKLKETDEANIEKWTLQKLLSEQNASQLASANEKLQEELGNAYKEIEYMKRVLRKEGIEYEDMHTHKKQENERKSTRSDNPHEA
Oligonucleotide | fluorescence intensity [a.u.]
GAACCAGCTAAGTATATCGTGAAAACCAAGAAGTAG | 531
CTAATGACGACCTCGCACGAGGCTTATCATTGCTTC | 522
GAAAGCTGCTGTGGTGGTGTTTTGTTAAACGTGTAG | 535
TGTACGAAGCTATACGTGACTAATATAGTAGTTAGG | 894
GAAAGTGCAGCAAAGCAGCTGATGTGCTGCAAGTAG | 623
GAAAATGGATTACGCAACATCAGCTTTTTAATTTAG | 543
CTATTACAAGAGCGCCACGAGGCAAGGAAAAAATTC | 589
GAAATAATTGTACATCATGTTATCGGCGTTGATTAG | 589
GAAATATGCCTATGTTTCGTGCTTTTGCCGATTTAG | 475
CTATCAATATAAATACAGCTGATTACATATAAATTC | 634
CTATTCGAAGAGTGCAACGTGTTGAAAGAACCCTTC | 575
CTAAAAAACCCTTTTCGCGTGCCTGTGATGCTTTTC | 565
GAAACAGTAACTTATCATCAGGACTGTTGGAATTAG | 521
CTACCTTTCCTTAATCATGATCTCTTTAGTGCCTTC | 583
CTAGCATTTCAATGTCACATAATACGAACCATTTTC | 525
CTACTAAAAATGGGTCACGTGATCTATATTCGATTC | 61400
CTACCTTTGCCAGCATACGTGTTACCCCCCTCATTC | 542
CTACAGTTTTTTCGTGGTGAGCTTTTTTTGCCTTTC | 490
CTATCTAATGCATCAGCTGTTATGCGCACTACTTTC | 626
CTATGTCCAAATTAGGACGTGGTTTATAGCCGATTC | 510
CTAATCAACAGTTAAAACACCACCAATATTTCCTTC | 514
CTATCGATCATACAGTACATCAGGACCTGCGTATTC | 552
CCTAACTACTATAGTCATGTGATATAGCTTCGTACA | 5120
CTAATTTCTTTGCCACCCGTGATCCAAAGCCGTTTC | 1070
GAAATCGGTACATCACCCGTGCCAAAATATGTGTAG | 668

Study 2 — method: RNA Bind-n-Seq; molecule type: RNA; medium: in vitro; concentration: 365 nM; baseline: no-protein control; reading: higher = stronger binding
Target: RNA binding protein fox-1 homolog 2, RRM domain, GST-SBP tag (RBFOX2, Homo sapiens, UniProt O43251-10, residues 100-194)
Notes: natural RNA segment, single round, ends assumed
Constant ends, left off below: GGGAGUUCUACAGUCCGACGAUC … UGGAAUUCUCGGGUGCCAA
Construct (chain): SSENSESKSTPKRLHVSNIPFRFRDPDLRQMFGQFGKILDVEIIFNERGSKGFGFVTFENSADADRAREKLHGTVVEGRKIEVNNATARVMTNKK
Oligonucleotide | RBNS enrichment (R)
CCCCACUUCCUUUCACUCACGCAUGGCCACAGCAUCUCUCUCUAGUAGCCGAGAGUGUCAUUCUCUCCACCCUUUCUGUGUGUACCAGAGCCACACCCAUGCCAUUACUG | 1.58
CUACAGCCUUUCUACAUUCUGACAUGCUAACAGUGGUUUAAGUUUCUAAAGUGUUUACCAGAUGCUGAAGGCAAGGGGAGGGAGCAGAAGCACUUAUGUUUACGGAUAUU | 0.553
AAAGAGAAGCUGCCACAGGUUGUACUUGCUCUGUGAGAUGUUGUAGACAUUCCGUAAGAGAAUCCAGAAUGAUAGCAGGAUCAGGAAAGAAAUGGAGCCAAAUCUGCUCU | 1.11
GUCAAUGCAAUUGUGGCCAUCUGGCCACAAGCUCCAAGGGACUUACAAGCUCAAGGGCCAGAGCCCAGAGACCCAUUUUCCCCUCCAAGGAGUGGGGCAGGAAGGGUCUC | 0.351
CUCUCUGCUCGAGGCAGCAGGGGGCGCUUUGCAGUAUAGUUGAGGAAAAUGACCGCUCCUUGACCAAACUGAGAUGCACUUGGUGUGUGGGAACUGAUUGCUUCCUCCCU | 0.384
GUCAGCACUUAACACAGGAAAAAACUAGGUGUUGUUUUGUUUUGUUAUUUUGGACAACAUAAAAUUCAGGAAUGUUUUAUUUAGCCUUGGUUUCUAGAAGGAAGGGAAAU | 1.08
GGCUGUGGCCUGCUGCCUGCUCAUGAUGAGUGGCCUCUGUUGACUUGUUUCUGGUUCACGUGGGGCCACCUGAAUCCGUGUCUGUGAGCAUUGACGCUUGAGUGAGCACG | 2.68
AAGGCAGCGGGGAGCAGACAAAGAUGAGGUCUACACUGUCCUUCAUGGGGAUUAAAGCUAUGGUUAUAUUAGCACCAAACUUCUACAAACCAAGCUCAGGGCCCCAACCC | 0.395
CCUGACGGAGCCCCUGGAGGUGGAGCACGUGGUGGGCCAGGGUGUCCUCCACCGUGGCGGCCAGCUGCAUGGAGCCCGGCCCUUGGGCACUGGUGAGCGUUGGAACCUUG | 0.497

Study 3 — method: RNA Bind-n-Seq; molecule type: RNA; medium: in vitro; concentration: 200 nM; notes: whole 134-nt RNA, ends assumed; together with: 150 mM KCl; baseline: input library; reading: higher = stronger binding
Target: Fragile X messenger ribonucleoprotein 1, C-terminal low-complexity region (Fmr1, Mus musculus, UniProt P35922)
Constant ends, left off below: GGGAGUUCUACAGUCCGACGAUC … UGGAAUUCUCGGGUGUCAAGG
Oligonucleotide | log2 enrichment
UUGCUUCAAGAAGAUCCCUAAGCUGUAGAACAUUUUAACGUUGAUGCCACAACGCAGAUUGAUGCCUUGUAGAUGGAGCUUGCAGAUGGA | -0.235
AAGUCCUGUGCUACACAUCGUAUGUACCGAAUCGGGGUGGGGUUUUUGGGGAGGGGAAAGUAUUAUGUUACGCCGUUCGGAUCUGCACUU | 1.1
CAAGUCCUGUGCUACACAUCGUAUGUACCGAAUCGGGGAAAGGGGAGGGGUGGGGAAAGUAUUAUGUUACGCCGUUCGGAUCUGCACUUC | 1.06
CAAGUCCUGUGCUACACAUCGUAUGUACCGAAUCGGGCCCCGGCCCCGGGCCCCGGAAAGUAUUAUGUUACGCCGUUCGGAUCUGCACUU | -0.59
CUCAAGUCCUGUGCUACACAUCGUAUGUACCGAAUCGGAGGUGGUUUUUUUGGAAAGUAUUAUGUUACGCCGUUCGGAUCUGCACUUCCA | -0.508
UCAAGUCCUGUGCUACACAUCGUAUGUACCGAAUCGGGGCCGGGGCCGGGCCGGGAAAGUAUUAUGUUACGCCGUUCGGAUCUGCACUUC | -0.0459
CUGUGCUACACAUCGUAUGUACCGAAUCGGGGUUUUUUUGGGGUUUUUUUGGGGAAAGGGGAAAGUAUUAUGUUACGCCGUUCGGAUCUG | -0.214
CCUCAAGUCCUGUGCUACACAUCGUAUGUACCGAAUCGGGUGGGAGGGAGGGAAAGUAUUAUGUUACGCCGUUCGGAUCUGCACUUCCAG | 1.51
ACCAUGCAGGUGGGCAUCUUUGGGAAGUGGGGCAAGGGGGGGAUAGGGAGGGGGGUAACACUUUGGGAACAGGUGGUCCCAGGUCGUUUA | 0.872
AAGUCCUGUGCUACACAUCGUAUGUACCGAAUCAAAUUUAAAUUUUUAAACCCAAAAAAGUAUUAUGUUACGCCGUUCGGAUCUGCACUU | 0.206

Study 4 — method: RNA Bind-n-Seq; molecule type: RNA; medium: in vitro; concentration: not given; baseline: input RNA pool; reading: higher = stronger binding
Target: RING finger protein unkempt homolog, zinc fingers 1-6, GST-SBP tag (UNK, Homo sapiens, UniProt Q9C0B0, residues 30-357)
Sequence of UniProt Q9C0B0 (30-357, looked up): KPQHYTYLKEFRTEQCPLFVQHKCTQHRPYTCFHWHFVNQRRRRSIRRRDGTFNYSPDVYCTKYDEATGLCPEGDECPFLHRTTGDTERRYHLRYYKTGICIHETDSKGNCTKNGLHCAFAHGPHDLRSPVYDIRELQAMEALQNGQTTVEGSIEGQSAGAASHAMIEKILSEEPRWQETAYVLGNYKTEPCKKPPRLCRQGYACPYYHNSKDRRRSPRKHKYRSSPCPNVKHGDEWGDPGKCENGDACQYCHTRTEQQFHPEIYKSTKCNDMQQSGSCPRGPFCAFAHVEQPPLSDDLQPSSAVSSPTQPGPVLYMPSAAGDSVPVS
Notes: RNA with constant flanks, human-mouse chimeric sites, ends assumed
Constant ends, left off below: GGGAGUUCUACAGUCCGACGAUC … CAACAGAGGAUUGAGCAUCA
Oligonucleotide | bound/input enrichment
GCCACCAGAUCCCAGAAACAUGACCCUUGCUGCCUACAAAGAGAAGAUGAAGGAACUCCCGCUGGUGUCCUUGUUCUGCUCCUGCUUCCUGGCCGAUCCCCUGAAUAAGUCGUCCUACAA | 0.37 ratio
GCUCCUCCCCGCUCUGCCCCUGCCUGCCACUGGGCUGGGACCAGAAUCCAGCUUUCUUUUAAAACUCUCAGUGUAACUUCUUUUUCUGACAUUUCAUUUUUUUUAAAUAGUGUAUUUUUU | 6.58 ratio
AACAGAUUGUCUUUAAGCAUUCCAAGCGAGAAUGCUGGGGUGAUCAUUGUUGCCCAUAUAUAGUAAUUAAUAGAUGGAAUGCUGUUCCAUGUUACAUCUUUCCUUCACUCCAGAAUUGUU | 2.94 ratio
CUGGCACUGUAUCAGAUAUAUUAAUUUUUUAAUGUAGAUGUAAUUUUAAAAAUGAAUGGCUACUUUACACGUUUAACUAGGGUUUUACUAUAUAUGUGUGUGUAUAUAUAUAUAUAUAUA | 21.3 ratio
UACUCAACUUUCUUGCCACAUUUUGAAUUCCAAGAUGUUAUUCCUCCAGAUGACUUUCUAACGAGUGAUGAAGAGCAAGAUUUGGUUUUAUUUGGAACUAUGAGAGGACAAGUUGUUGGA | 0.167 ratio
CCUCUGCCCCGCUCUGCAGCCUGGGGACACUGGGCUGGGACCAGAAUCCAGCUUUCUUUUAAAACUCUCAGUGUAACUGUAUCCCGUGACAUUUCAUUUUUUUUAAAUAGUGUAUUUUUU | 2.86 ratio
UCAGGAACCCAGACAAACAUGAAUGUAAAUGAAGUCAUUAGCAACAGAGCAAUUGAAAUGUUAGGAGGUGAACUUGGCAGCAAGAUACCUGUGCACCCCAACGAUCAUGUUAACAAAAGC | 0.281 ratio
AUUGUUGAAGCGAAUCCACUUUUAGAAGCAUUUGGAAAUGCAAAGACUGUUCGCAACAAUAAUAGCAGUCGAUUUGGAAAAUUUGUAGAAAUUCAUUUUAAUGAAAAGAGCUCAGUUGUU | 0.683 ratio
GUUGCCAGCUUCCGGUUCCGUUGGGCUCGGUUCUCUCCUGAGCUACGGUCCCUGGCAUUUUAGGUGUGCCAUCCAACAAACAUGGAUCAGGUAAUGCAGUUUGUGGAGCCCAGCCGGCAG | 0.125 ratio
ACAGUUAUAUUGUUGAGUUUCAUUUUCUUGUAUGUUUGUAGUGUCUGCUUGCCUGUGACUUCUGGUAAAAUAAAAUAAGCCUUUGAAAAUAUUUUAGCAUGGUAUUUUUCUAAAAAUAAA | 1.37 ratio
AAAGAGUGGAUAGAGUGUGCACACGGGAUCGGUGGGACUCGGGCAGAAAAGGAGUGCAAGAUAGAGUUCGAUGACUUCGAAGAGUGCUUGCUUCGGUACAAAACGAUGAGACGUGCACAU | 0.241 ratio

For quick reference, copied from above (study 4):
Oligonucleotide | bound/input enrichment
GCCACCAGAUCCCAGAAACAUGACCCUUGCUGCCUACAAAGAGAAGAUGAAGGAACUCCCGCUGGUGUCCUUGUUCUGCUCCUGCUUCCUGGCCGAUCCCCUGAAUAAGUCGUCCUACAA | 0.37 ratio
GCUCCUCCCCGCUCUGCCCCUGCCUGCCACUGGGCUGGGACCAGAAUCCAGCUUUCUUUUAAAACUCUCAGUGUAACUUCUUUUUCUGACAUUUCAUUUUUUUUAAAUAGUGUAUUUUUU | 6.58 ratio
AACAGAUUGUCUUUAAGCAUUCCAAGCGAGAAUGCUGGGGUGAUCAUUGUUGCCCAUAUAUAGUAAUUAAUAGAUGGAAUGCUGUUCCAUGUUACAUCUUUCCUUCACUCCAGAAUUGUU | 2.94 ratio
CUGGCACUGUAUCAGAUAUAUUAAUUUUUUAAUGUAGAUGUAAUUUUAAAAAUGAAUGGCUACUUUACACGUUUAACUAGGGUUUUACUAUAUAUGUGUGUGUAUAUAUAUAUAUAUAUA | 21.3 ratio
UACUCAACUUUCUUGCCACAUUUUGAAUUCCAAGAUGUUAUUCCUCCAGAUGACUUUCUAACGAGUGAUGAAGAGCAAGAUUUGGUUUUAUUUGGAACUAUGAGAGGACAAGUUGUUGGA | 0.167 ratio
CCUCUGCCCCGCUCUGCAGCCUGGGGACACUGGGCUGGGACCAGAAUCCAGCUUUCUUUUAAAACUCUCAGUGUAACUGUAUCCCGUGACAUUUCAUUUUUUUUAAAUAGUGUAUUUUUU | 2.86 ratio
